Measurements pooled from the literature.
Numbered parts are unrelated; each lists some results of a single study. Positions count from the first letter of the parent shown.

Study 1 — method: DNA-protein interaction ELISA; form: double-stranded DNA, one strand shown; sample: in vitro, bacterial lysate; tested at: not given; notes: whole dsDNA probe, crude lysate protein; relative to: highest signal in screen; reading: higher = stronger binding
Target: Probable WRKY transcription factor 33, C-terminal DNA-binding domain (WRKY33, Arabidopsis thaliana, UniProt Q8S8P5, residues 346-449)
Target sequence (chain): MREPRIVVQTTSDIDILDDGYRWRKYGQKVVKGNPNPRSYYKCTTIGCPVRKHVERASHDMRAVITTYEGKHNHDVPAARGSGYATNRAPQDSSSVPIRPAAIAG
Strand	relative absorbance
AAAAAATTACTCCTAGCCCTCATTCAAAAA	65.7 % of maximum
AAAAAAAGGTCATTGCTGCTGGTGTTAAAA	91.6 % of maximum
AAAAAAGGCTTCCACTTTGAGTTTGCAAAA	26 % of maximum
AAAAAAACCGCGTCGCGGCCCGGGAAAA	46.5 % of maximum
AAAAAACTGTGTCCCCGTCCCATCTCAAAA	33.7 % of maximum
AAAAAACTGGATGCGCTCACCAGTTAAAAA	30.6 % of maximum
AAAAAACTTGCTCCTCCGTTTTACTCAAAA	58.4 % of maximum
AAAAAACGCTCCGTTTTTGCAATGCGAAAA	29.7 % of maximum

Study 2 — target: CCNF, cyclin fold, Cln2 fusion (human); method: yeast growth competition, sequencing; sample: yeast; notes: strong parent motif; relative to: not given; reading: higher = stronger binding; starting sequence: viral docking peptide; TSVRRALFTGGSD
Variant	normalised enrichment score
TSVRRMLFTGGSD [A6M]	7.46
TSVRRALFTGMSD [G11M]	8.53
TSVRPALFTGGSD [R5P]	-0.45
TSVYRALFTGGSD [R4Y]	5.91
TSVRRALQTGGSD [F8Q]	0.759
TTVRRALFTGGSD [S2T]	8.29
TSVRRVLFTGGSD [A6V]	7.74
TSVRRALFNGGSD [T9N]	8.13
TPVRRALFTGGSD [S2P]	7.71
TSVRYALFTGGSD [R5Y]	0.409
TSVNRALFTGGSD [R4N]	6.57
TSVRRALITGGSD [F8I]	2.04
TSVRRALFDGGSD [T9D]	7.66
TSVRRDLFTGGSD [A6D]	3.5
TSVRRANFTGGSD [L7N]	0.203
TSVRRALPTGGSD [F8P]	0.411
TSVRRALFTGGED [S12E]	7.81
TSVRRALFMGGSD [T9M]	8.82
TSVRRALFTGGTD [S12T]	8.17
TSVRRALFTGNSD [G11N]	8.2
TAVRRALFTGGSD [S2A]	7.9
TSVRRALFTVGSD [G10V]	7.79
TSGRRALFTGGSD [V3G]	3.32
TSYRRALFTGGSD [V3Y]	5.66
TSVRAALFTGGSD [R5A]	0.742

Study 3 — method: aptamer microarray, sandwich; form: DNA with 2'F-ANA; sample: in vitro; tested at: 200 nM; together with: Cy3 exosite-II aptamer, 400 nM; reading: higher = stronger binding; strand: GGTTGGTGTGGTTGG
Target: Prothrombin, mature alpha-thrombin (F2, Homo sapiens, UniProt P00734)
Notes: whole 15-mer aptamer, many near background
Modification	mean fluorescence intensity [a.u.]
2'F-ANA at 1 2 5 6 7 9 11	82.6
2'F-ANA at 4 5 10 11 14 15	60.5
2'F-ANA at 2 3 8 11 13	778
2'F-ANA at 2 3 4 7 10 11	261
2'F-ANA at 3 6 11 13 15	767
2'F-ANA at 5 8 10 11 14 15	47.5
2'F-ANA at 2 3 4 5 7 9 10 12 14	48.1
2'F-ANA at 2 9 12	799

Study 4 — method: RNA Bind-n-Seq; form: RNA; sample: in vitro; tested at: 365 nM; relative to: no-protein control; reading: higher = stronger binding
Target: RNA binding protein fox-1 homolog 2, RRM domain, GST-SBP tag (RBFOX2, Homo sapiens, UniProt O43251-10, residues 100-194)
Notes: natural RNA segment, single round, ends assumed
Target sequence (chain): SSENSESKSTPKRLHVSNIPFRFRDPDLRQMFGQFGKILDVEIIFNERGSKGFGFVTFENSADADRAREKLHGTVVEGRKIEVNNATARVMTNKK
Strand	RBNS enrichment (R)
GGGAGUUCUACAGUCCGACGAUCCCCAGGGCUAGCCUUCACUGCCCUAGUGGCAGCGCUUCCCAGGGGUGCUCUCUGGCUCCCAGAUGUCUAGGGCUCCAGACUCCAAGAGGGCUGAGCCUUCUCUUCUGUCUUGGAAUUCUCGGGUGCCAA	0.146
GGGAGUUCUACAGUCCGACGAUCUCUGUCUAUGAAUACCUUUUUGAACAAAGAAAAUUUUAUUGAUUUAAAAAGCUUUUAUAUGAGACAGACAAGUCCCUGAGUUCCAGGCCAGCCUUGGUGGCAAGUCACUAUGGAAUUCUCGGGUGCCAA	0.362
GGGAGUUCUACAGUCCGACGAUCAACGAAAUUACCAUACUCUUAAACAGACCUGUUAAAUUAAUGUGGACUGGCAGUUAACUUGUGCAACUCACUGAAACCAAAAUAUUGAAGAAGUCCCACAUGGAAGACGCUGGAAUUCUCGGGUGCCAA	0.385
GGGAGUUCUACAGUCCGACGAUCUCCAUAGCCUUGUAAGAGAUACUGAUUGUAUCUGAAAUUAUUUUUUAAAAAAAUAAAUUAUCCUGCUUUAGUUAGUGUGUUAAAAGUAGACGAUGUUCUAAUAUAACACUUGGAAUUCUCGGGUGCCAA	3.28
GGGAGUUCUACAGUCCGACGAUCCCCAUUCCACAGGAACCCUAUUCCUACCCCCACCCCUGCCCACAAAUGCCACUGUGAUCCACAGCUGAAGUUGUUUCUAAUUGCCUAAAGGCAGUCUCUGUGUCUGGAGCUGGAAUUCUCGGGUGCCAA	0.479
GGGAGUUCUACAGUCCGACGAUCAGGGGAUGACCUGUGGGCGACACAGAAGAGAAGACACCUGCAGGAGGCGACGGUGGCCCCAGGAUGGGGAGCAGGCCUCUGCUGCCUGUUCCCUCUGCCCUUUCUCUGGCUGGAAUUCUCGGGUGCCAA	0.392
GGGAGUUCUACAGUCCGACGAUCCCAGAGAAGCGCUGUUGCCCGCCCUCCACCCACUAGGUGAACAGCAGGAUGCCCUGUUGGGGGCUUCAGGUCUCUGUGGGUGGGAAUGCAAGUGAACUUGGGAGGGGGCAUGGAAUUCUCGGGUGCCAA	0.752
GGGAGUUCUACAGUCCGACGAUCUAAGCUAGGAUAUGAUUAUAUUUCCUAUAUAACUAAAAAUUUUGUUUCAUAAAUUUUAAAAUAAUUAUUUUUGACUAUGAACAUUAGUCCAAAUUUAAUAUUUGACACAGUGGAAUUCUCGGGUGCCAA	0.719

Mixed results — method: cross-linking MS
Molecule	partner	test system	setting	quantity	result
SEC61B (Homo sapiens, UniProt P60468)	SEC61A1 (Homo sapiens, UniProt P61619)		hits only	interaction screen	cross-linked
YWHAE (Homo sapiens, UniProt P62258)	YWHAZ (Homo sapiens, UniProt P63104)		hits only	interaction screen	cross-linked
MTREX (Homo sapiens, UniProt P42285)	NOP53 (Homo sapiens, UniProt Q9NZM5)	cell fractions	together with: DSSO	cross-linked residues	K748 to K127
Histone H2B type 1-C/E/F/G/I (Homo sapiens, UniProt P62807)	H2AC18 (Homo sapiens, UniProt Q6FI13)		hits only	interaction screen	cross-linked

Excerpt of the above (study 4):
Strand	RBNS enrichment (R)
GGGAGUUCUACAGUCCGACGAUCUCCAUAGCCUUGUAAGAGAUACUGAUUGUAUCUGAAAUUAUUUUUUAAAAAAAUAAAUUAUCCUGCUUUAGUUAGUGUGUUAAAAGUAGACGAUGUUCUAAUAUAACACUUGGAAUUCUCGGGUGCCAA	3.28
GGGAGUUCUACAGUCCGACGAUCCCCAUUCCACAGGAACCCUAUUCCUACCCCCACCCCUGCCCACAAAUGCCACUGUGAUCCACAGCUGAAGUUGUUUCUAAUUGCCUAAAGGCAGUCUCUGUGUCUGGAGCUGGAAUUCUCGGGUGCCAA	0.479
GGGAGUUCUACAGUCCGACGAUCAGGGGAUGACCUGUGGGCGACACAGAAGAGAAGACACCUGCAGGAGGCGACGGUGGCCCCAGGAUGGGGAGCAGGCCUCUGCUGCCUGUUCCCUCUGCCCUUUCUCUGGCUGGAAUUCUCGGGUGCCAA	0.392
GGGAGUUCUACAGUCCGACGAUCCCAGAGAAGCGCUGUUGCCCGCCCUCCACCCACUAGGUGAACAGCAGGAUGCCCUGUUGGGGGCUUCAGGUCUCUGUGGGUGGGAAUGCAAGUGAACUUGGGAGGGGGCAUGGAAUUCUCGGGUGCCAA	0.752
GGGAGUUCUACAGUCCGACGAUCUAAGCUAGGAUAUGAUUAUAUUUCCUAUAUAACUAAAAAUUUUGUUUCAUAAAUUUUAAAAUAAUUAUUUUUGACUAUGAACAUUAGUCCAAAUUUAAUAUUUGACACAGUGGAAUUCUCGGGUGCCAA	0.719
